# Measured values pooled from the literature.
# Each numbered part is a random draw from the data of one study; scales do not carry over between parts.

# Block 1 — technique: RNA Bind-n-Seq; molecule type: RNA; medium: in vitro; concentration: not given; baseline: input RNA pool; reading: higher = stronger binding
# Target: RING finger protein unkempt homolog, zinc fingers 1-6, GST-SBP tag (UNK, Homo sapiens, UniProt Q9C0B0, residues 30-357)
# Chain of UniProt Q9C0B0 (30-357, looked up): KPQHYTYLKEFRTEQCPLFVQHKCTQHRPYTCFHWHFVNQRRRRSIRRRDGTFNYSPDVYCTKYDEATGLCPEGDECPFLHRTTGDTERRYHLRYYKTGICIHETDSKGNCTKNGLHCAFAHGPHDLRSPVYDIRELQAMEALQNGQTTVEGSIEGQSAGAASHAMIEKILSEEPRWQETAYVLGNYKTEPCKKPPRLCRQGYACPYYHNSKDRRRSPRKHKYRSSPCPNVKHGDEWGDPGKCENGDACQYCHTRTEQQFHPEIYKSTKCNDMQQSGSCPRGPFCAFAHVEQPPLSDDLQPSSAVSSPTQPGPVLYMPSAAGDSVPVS
# Notes: RNA with constant flanks, human-mouse chimeric sites, ends assumed
# Constant ends, left off below: GGGAGUUCUACAGUCCGACGAUC … CAACAGAGGAUUGAGCAUCA
Oligonucleotide,bound/input enrichment
GGACAUCUGUCAAAUUGUUAUGUUCCUAAAAACGUAGUGAACACUCUGAUACACUUCAUCUGCUUGUACAUUUAACUGAUAGAGAAAUGUAAAUAUGUUAAUCCAAGCAAUGUGUCACUU,0.302 ratio
AAAGUGGACUAUGGCGAGUACAUGGAUAAAAACAAUGUGAGGCGACAAGCAACAACAAUCAUAGCUGAUAACAUUAUAUUUCUGAGUGACCAGACAAAAGAAAAGGCGUAGAAAGGAUGA,1.88 ratio
UCUGGUCACACUCGUGUGUAUGGUGUUUGCUUUGUUGACACUUCACUGGGCAAGUUUUUCAUAGGUCAGUUUUCGGAUGACCGCCACUGUUCCAGAUUUAGGACGCUAGUGGCUCACUAU,0.239 ratio
GUACUGCAGCAGCAGGGAAAACUGCAGGAAGCUCUGAUGCAUUAUAAAGAAGCCAUACGAAUCAGUCCUACCUUUGCUGAUGCCUACUCUAAUAUGGGAAACACUCUAAAGGAGAUGCAG,0.25 ratio
CCCUCCCCGGGCCACCCACCCCUCCCGCUCCCAGCGGGAGAUCCAGGUUUCUUCUUAUUUCAUAGCAAGCCAGAACAAUGUUCUACGCACAUUUUGUCCUCAGUAAACGAGGGCCUCUGG,1.06 ratio
CACGUGUCUGCAGUGCUUGAUGUGGACUACUCUCCCACUGGGAAGGAAUUUGUGUCUGCUAGUUUCGAUAAGUCUAUUAGAAUCUUUCCUGUGGACAAGAGCCGAAGCAGGGAAGUGUAU,1.58 ratio
UCAUUUUUCUCUUUUCUGAUCGUCAGGAAAAGCCUAACUAAAGAUUAGGUUGUAAGAAAAACAGAAGCCAUGUUUCGAAGACCUGUGUUACAGGUAUUUCGUCAGUUUGUAAGACAUGAG,0.18 ratio
AAAGAGAAACUAAAGCAACUAAUAGAGAAGAGGAUUGGCAAAGAGAAUUUCAUAGAGAAACUAGGAUUUAUUAGCAAACAUGAGUUAGUAUUCCAGACGUCUCAGAAAACCCCAGCCAAC,2.56 ratio
CUGUGUGGCUUACUAAAAUGGCUUGUAAAGAAGUUUUUCCAAGCUGUAACCCAUGCUGUUAUUAUAGUUGCUGCAAAAUGUUCUUCCUGAUAUUGAUUUUAUUUGUUAACUGAAGGUCUC,0.521 ratio
ACUCUUGACUCUUUCCAUCCUCUUCCUUUCCCUCUUGAUAUUCAAGGCCAUGAAUCCCAAAAUAGCUGUCUUAGUGGCUAGCACCCAAACAGAGGUGGGUGCCAUCCACCCCAGUGUCUC,0.677 ratio
GAGCCAAGCCGGCAGUUUGUAAAGGACUCAAUUCGGCUGGUUAAAAGAUGCACCAAACCCGACAGAAAAGAAUUCCAGAAGAUUGCCAUGGCUACAGCUAUAGGAUUUGCUAUAAUGGGA,0.323 ratio

# Block 2 — technique: RNA Bind-n-Seq; molecule type: RNA; medium: in vitro; concentration: 365 nM; baseline: no-protein control; reading: higher = stronger binding
# Target: RNA binding protein fox-1 homolog 2, RRM domain, GST-SBP tag (RBFOX2, Homo sapiens, UniProt O43251-10, residues 100-194)
# Notes: natural RNA segment, single round, ends assumed
# Constant ends, left off below: GGGAGUUCUACAGUCCGACGAUC … UGGAAUUCUCGGGUGCCAA
# Construct (chain): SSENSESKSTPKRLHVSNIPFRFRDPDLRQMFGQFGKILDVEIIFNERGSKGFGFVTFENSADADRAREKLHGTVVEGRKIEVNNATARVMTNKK
Oligonucleotide,RBNS enrichment (R)
UAGGAAGCUGGUGAUAUUAAUGCUUACUGUUCUAAUCCAGUGGCCAAGGUAUUAAGAAUUUGCAAGUAUUUUAGAUUUUCGAAAAUGAAUGAGAGAACUGUGUAAACACC,0.542
GUCGUCUUCAGUUUUAGAGGUUUACUUCUCCCUUGCCUUUGACUCAUUGGACUAGUGCAGAGGCUUUAAGUAGUUUAAAAUGGGCUUUUGCUUUUCUAGGUCAUUAACGU,0.85
AAAGAACAGUGUGACACCAGAAGCCAAGAGAUGGUUUUUACUAACAACAGCUUUGAUGAGUUCCUAUUAAGGUCGUAUUGUGUAUUGUGCCAAAUUUUCCACCCAGUAUA,0.305
UGAAGAGAAAUUUGUGUGUCCUUGUUUGUUGCCUGAUCUUAGUUUCAUGGAAGAAAAUGGAAUCUACAGAAUUAUUUUCAAAAAUAAAGUAAAGGCUGAAUUGCUGAAAA,0.811
CUGUGUUUCUCUUUUCUCUGAAAGGAUUAAUAGAUCUGAAGCUUUGGGCCACUCAGAGCCUUCCUUGAUGCUGCCAGAGUCUUCUUAUUUAGAUUUUCUGUCUUAAACCA,0.23
UGACGCUCAUCUGCGUCUCCGUCUGCUAGGUGGUCGGUGAUAAAUUCAAAUGUAUCAGAUCUCUGUGCCAGAUACUCAUAUUAGUAUACCCUGUUCAAAGGAGAAUGGUG,0.317
UGGUGUUUCCAGUUUGAUGUUGCUGGGUGGUUGAGUGAGUGAAUUUUCAUGUGGCUGGGUGGGUUUUUGCCUUUUUCUCUUGCCCUGUUCCUGGUGCCUUCUGAUGGGGC,0.835
AAGUACAGGCCAAGUGUUGUCAAACACCUUGGCUAAAACAGUGGAGGGUGAUGGGUAAAGCAGUAGAGGGCCCUCAACCCACACACUGGCUGAAACUGCCACCAACUGCC,0.353
CGCGGAUCAACCAGGCAGAGUUCUGUGGCGCCGCGUGGACAGCCGGAGCAGUUGGCCUGUGCUUGGAGGCCUCAGAUAGACCUGUGACCUGGUCUGGUCAGGCAAUGCCC,0.382
UUAAGGUUUAAUAUGCAUUCAGAUUACUUUUACUGAAUAGUACACCAUAAAGCUUUUGUUAUAUAUUAAAUGUAAACUGAAAGGAAUGUAAACAUAUGUAUUGUUAAUUA,0.497
CCUAUCUCCCAUAGCCAUUGCUGGCCACCCCUCUCUGUCAAUCUGUGCGCUCUUUUGAUACAUACAUUUACCUGCUGUUUUUCUCAAAUAAAAGUUGCAAGCUACUGCUC,0.986
AGACGCCAGAGCUGGCGGGGCAGGAGGACGCUGUACGGAUGCAGCAGCUGAAAAUGAAGGUAAUUAAAACCAUGGAGGCGAUCAGCGAGGUUCUCCAGGACCUUAGGUUU,0.906

# Block 3 — technique: RNA Bind-n-Seq; molecule type: RNA; medium: in vitro; concentration: 1 µM; notes: whole 134-nt RNA, ends assumed; added: 150 mM KCl; baseline: input library; reading: higher = stronger binding
# Target: Ras GTPase-activating protein-binding protein 1, RRM domain (G3BP1, Homo sapiens, UniProt Q13283)
# Chain of UniProt Q13283 (whole entry, looked up): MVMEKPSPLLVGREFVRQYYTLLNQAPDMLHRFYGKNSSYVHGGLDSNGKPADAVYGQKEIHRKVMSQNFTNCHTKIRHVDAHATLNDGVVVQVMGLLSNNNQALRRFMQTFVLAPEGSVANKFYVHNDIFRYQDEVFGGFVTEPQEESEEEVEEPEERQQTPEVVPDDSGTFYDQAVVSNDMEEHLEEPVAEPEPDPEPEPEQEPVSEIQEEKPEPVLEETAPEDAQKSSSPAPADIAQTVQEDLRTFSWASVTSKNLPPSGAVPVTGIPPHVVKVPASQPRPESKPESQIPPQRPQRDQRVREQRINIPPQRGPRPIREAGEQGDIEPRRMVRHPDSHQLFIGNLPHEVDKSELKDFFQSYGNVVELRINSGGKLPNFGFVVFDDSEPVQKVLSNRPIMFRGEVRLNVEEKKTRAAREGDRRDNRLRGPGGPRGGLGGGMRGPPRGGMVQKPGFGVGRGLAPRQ
# Constant ends, left off below: GGGAGUUCUACAGUCCGACGAUC … UGGAAUUCUCGGGUGUCAAGG
Oligonucleotide,log2 enrichment
UCCUCAAGUCCUGUGCUACACAUCGUAUGUACCGAAUCGGCGGGGCGGGCGGAAAGUAUUAUGUUACGCCGUUCGGAUCUGCACUUCCAG,-0.284
CAAGUCCUGUGCUACACAUCGUAUGUACCGAAUCGGGAAAAAGGGUGGGAAAGGGAAAGUAUUAUGUUACGCCGUUCGGAUCUGCACUUC,0.812
AAGUCCUGUGCUACACAUCGUAUGUACCGAAUCGGUUUUUGGGUUUUUGGUUUUUGGAAAGUAUUAUGUUACGCCGUUCGGAUCUGCACU,-0.122
UGGCCCUGGUGGCAUGCGGGGAGGAAGAGGUGGCCUCAUGGAUCGUGGUGGUCCCGGUGGAAUGUUCAGAGGUGGCCGUUGUGGAGACAG,1.86
GUCCUGUGCUACACAUCGUAUGUACCGAAUCGGGCCCCCCGGCCCCCCGGCCCCCCGGAAAGUAUUAUGUUACGCCGUUCGGAUCUGCAC,-0.545
UAACUUUAGAGGAGGAUCUGAUGGAUAUGGCAGUGGAGGUGGAUUUGGGGAUGGCUAUAAUGGGUAUGGAGGAGGACCUGGAGGUGGCAA,-0.703
GUCCUGUGCUACACAUCGUAUGUACCGAAUCGGGGAAAAAGGAAAAAGGAAAAAGGGGAAAGUAUUAUGUUACGCCGUUCGGAUCUGCAC,0.0447
CUCAAGUCCUGUGCUACACAUCGUAUGUACCGAAUCGGUGGUUUGGAAAAAGGAAAGUAUUAUGUUACGCCGUUCGGAUCUGCACUUCCA,-0.189
UCAAGUCCUGUGCUACACAUCGUAUGUACCGAAUCGGUUGGGGUUGGGGUUGGGAAAGUAUUAUGUUACGCCGUUCGGAUCUGCACUUCC,0.408
CUCAAGUCCUGUGCUACACAUCGUAUGUACCGAAUCGGAGGGGAGGGGAGGGGAAAGUAUUAUGUUACGCCGUUCGGAUCUGCACUUCCA,0.428
UCAAGUCCUGUGCUACACAUCGUAUGUACCGAAUCGGGUUGGUUGGGGUUGGGGAAAGUAUUAUGUUACGCCGUUCGGAUCUGCACUUCC,0.382
UGGCCCUGGUGGCAUGCGGGGAGGAAGAGGUGGCCUCAUGGAUCGUGGUGGUCCCGGUGGAAUGUUCAGAGGUGGCCGUGGUGGAGCCAG,1.49
UGGGAGGUCGAUUUUGUUUAUUUUUUUAGCUCAUUUCCAGGGGUGGGAAUUUUUUUUUAAUAUGUGUCAUGAAUAAAGUUGUUUUUGAAA,1.35
CACAGACAACACGCACCCACACAGACACAGAGGGAAGGGGUUGGGAUGCGGACAGGGUGCACAGCAGGGCGGGGUAGGACCCCAGCCCCU,0.342

# Block 4 — technique: protein-binding microarray; molecule type: double-stranded DNA, one strand shown; medium: in vitro; concentration: 2540 nM top; notes: 60-bp whole probe; added: salmon DNA 0.4 mg/ml; baseline: random background probes; reading: higher = stronger binding; constant ends, left off below: GCCTAGCAC … GTCTTGATTCGCTTGACGCTGCTG
# Target: Interferon regulatory factor 3, full length, phosphomimetic (IRF3, Homo sapiens, UniProt Q14653, residues 1-427, S386D/S396D/S398D/S402D/T404D/S405D)
# Target sequence (chain): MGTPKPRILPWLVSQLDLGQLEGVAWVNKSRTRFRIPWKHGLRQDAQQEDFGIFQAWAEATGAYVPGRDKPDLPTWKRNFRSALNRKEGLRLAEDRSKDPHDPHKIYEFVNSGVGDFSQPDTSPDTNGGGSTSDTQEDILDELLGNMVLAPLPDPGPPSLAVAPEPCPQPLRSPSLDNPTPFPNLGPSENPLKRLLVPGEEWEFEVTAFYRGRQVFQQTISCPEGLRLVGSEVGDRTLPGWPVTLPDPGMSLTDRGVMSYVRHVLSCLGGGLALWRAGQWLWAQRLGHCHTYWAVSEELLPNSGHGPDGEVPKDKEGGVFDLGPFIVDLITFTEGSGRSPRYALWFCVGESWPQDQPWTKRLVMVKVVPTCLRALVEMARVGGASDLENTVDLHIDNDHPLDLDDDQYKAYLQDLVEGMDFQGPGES
Oligonucleotide,fitted relative affinity
GACGGTATCCTTCTCATGACGTGCTAG,6.98 z-score
TCACATTTTCATTTTGTACTGTGCTAG,2.49 z-score
AGAAACTGTGAGGAGGGGAAGTGCTAG,0.0102 z-score
GGACCGCGACCTGCCAAGTCGTGCTAG,-0.705 z-score
TCATCTTTACTGCTCCAACTGTGCTAG,1.25 z-score
TTAGGTCTGGACTTTCGGTTAGTGCTA,0.981 z-score
TCATTTTTTTTTCTACTACTGTGCTAG,1.69 z-score
TCAAGTTTCACTTTCCAACTGTGCTAG,8.27 z-score
TTAGGGCTCGGACTGGGTTAGTGCTAG,-1.02 z-score
ACTTTTTTTTTTCCCTGAAAGTGCTAG,2.15 z-score
TCATTTTGCCCTATTTAACTGTGCTAG,2.21 z-score
TGTGAAACCTTCAGGCACGTGTGCTAG,0.254 z-score
GACCGACTGCTTATCCTGACGTGCTAG,-0.0366 z-score
TTAGCTATCGGACTGGGTTAGTGCTAG,-0.265 z-score
TTAGGTATCGGTAACGGTTAGTGCTAG,1.72 z-score
GACGGACGGGGTTTCGGGACGTGCTAG,1.1 z-score
GACGGTTTCCTTTCCTTGACGTGCTAG,9.67 z-score
CCAGGTTGGGAGGGGTAGGGGTGCTAG,-0.0658 z-score
TTAGGTTCCGGTTACGGTTAGTGCTAG,3.69 z-score
TCTCTTTCCAACTCTGTTTTCGTGCTA,4.43 z-score
TACGAACTGAGTTTCGAGACGTGCTAG,1.32 z-score
TCATATGTCTGTTTTTGACTGTGCTAG,0.99 z-score
ACAGCTCACGCTTTGGAAAGGTGCTAG,-0.252 z-score
GACGATTTCAGACAGGAGACGTGCTAG,0.686 z-score
GTAGATTTCAGTATCGATTAGTGCTAG,2.62 z-score

# A few entries again (block 4):
Oligonucleotide,fitted relative affinity
GACGGACGGGGTTTCGGGACGTGCTAG,1.1 z-score
GACGGTTTCCTTTCCTTGACGTGCTAG,9.67 z-score
CCAGGTTGGGAGGGGTAGGGGTGCTAG,-0.0658 z-score
TTAGGTTCCGGTTACGGTTAGTGCTAG,3.69 z-score
TCTCTTTCCAACTCTGTTTTCGTGCTA,4.43 z-score
TACGAACTGAGTTTCGAGACGTGCTAG,1.32 z-score
TCATATGTCTGTTTTTGACTGTGCTAG,0.99 z-score
ACAGCTCACGCTTTGGAAAGGTGCTAG,-0.252 z-score
GACGATTTCAGACAGGAGACGTGCTAG,0.686 z-score
GTAGATTTCAGTATCGATTAGTGCTAG,2.62 z-score
